Published values collected from several papers.
Values joined by “and” are separate records of one study, mostly repeats; a detail may differ.
Read-out: cell growth or viability

SMILES | cell line | test | conditions | viability
COc1cc(N2CCC(N3CCN(C)CC3)CC2)ccc1Nc1ncc(Cl)c(Nc2ccccc2P(C)(C)=O)n1 | Ba/F3 EML4-ALK | CCK-8 | 1 µM, 30 min | 88% and 80% and 83%
N[C@H]1C(O)O[C@H](CO)[C@@H](O)[C@@H]1O (some centres unmarked) | Caco-2 | CCK-8 | 100 µM | 100%
Nc1ccn([C@@H]2O[C@H](CO)[C@@H](O)C2(F)F)c(=O)n1 | MDA-MB-231 | MTT | 0.3125 µg/mL, 48 h | 80.2%
N#CC(C(=O)Nc1cccc(C(F)(F)F)c1)=C1Sc2nc3ccc(S(=O)(=O)N4CCCC4)cc3nc2S1 | WI-38 | MTT | 12.5 µM, 24 h | 80.8%
Cn1cnc2c1c(=O)n(CC(=O)Nc1c(Cl)cccc1Cl)c(=O)n2C | NCI-H1975 | MTT | 1.6 µg | 69.5%
CCOC(=O)C(C(C)=O)=C1Sc2nc3ccc(S(=O)(=O)N4CCCC4)cc3nc2S1 | WI-38 | MTT | 1.56 µM, 24 h | 100%
CNC(=O)c1cc(Oc2ccc(NC(=O)Nc3ccc(Cl)c(C(F)(F)F)c3)cc2)ccn1 | WI-38 | MTT | 100 µM, 24 h | 13.1%
COc1cccc2c1C(=O)c1c(O)c3c(c(O)c1C2=O)C[C@@](O)(C(=O)CO)C[C@@H]3O[C@H]1C[C@H](N)[C@H](O)[C@H](C)O1 | K562 | MTT | 12.5 µg/mL | 62.7%
COc1cccc(NC(=O)Nc2ccc(Oc3nc4ccccc4n4cnnc34)cc2)c1 | WI-38 | MTT | 50 µM, 24 h | 62.6%
CC(C)C[C@H](NC(=O)[C@H](Cc1ccccc1)NC(=O)c1cnccn1)B(O)O | CHP-212 | SRB | 3.333 µM | 86.1% and 98.6% and 62.3%
O=C1CCCCC1=C1Sc2nc3ccc(S(=O)(=O)N4CCCC4)cc3nc2S1 | WI-38 | MTT | 12.5 µM, 24 h | 86.4%
CC(=O)c1nn(-c2ccc(C)cc2)/c(=N/N=C(\C)c2ccc(NC(=O)c3ccccc3)cc2)s1 | WI-38 | MTS | 0.312 µM, 24 h | 11.8%
COc1cccc2c1C(=O)c1c(O)c3c(c(O)c1C2=O)C[C@@](O)(C(=O)CO)C[C@@H]3O[C@H]1C[C@H](N)[C@H](O)[C@H](C)O1 | WI-38 | MTT | 25 µM, 24 h | 21.2%
c1cnc2c(c1)ccc1cccnc12 | HepG2 | MTT | 12.5 µg/mL, 24 h | > 80%

A few entries again:
SMILES | cell line | test | conditions | viability
COc1cccc2c1C(=O)c1c(O)c3c(c(O)c1C2=O)C[C@@](O)(C(=O)CO)C[C@@H]3O[C@H]1C[C@H](N)[C@H](O)[C@H](C)O1 | WI-38 | MTT | 25 µM, 24 h | 21.2%
